Experimental data of several laboratories.
Lines come from different studies, so protocols differ. ± marks the error that the study gave.
Sequence of UniProt P40939 (whole entry, looked up): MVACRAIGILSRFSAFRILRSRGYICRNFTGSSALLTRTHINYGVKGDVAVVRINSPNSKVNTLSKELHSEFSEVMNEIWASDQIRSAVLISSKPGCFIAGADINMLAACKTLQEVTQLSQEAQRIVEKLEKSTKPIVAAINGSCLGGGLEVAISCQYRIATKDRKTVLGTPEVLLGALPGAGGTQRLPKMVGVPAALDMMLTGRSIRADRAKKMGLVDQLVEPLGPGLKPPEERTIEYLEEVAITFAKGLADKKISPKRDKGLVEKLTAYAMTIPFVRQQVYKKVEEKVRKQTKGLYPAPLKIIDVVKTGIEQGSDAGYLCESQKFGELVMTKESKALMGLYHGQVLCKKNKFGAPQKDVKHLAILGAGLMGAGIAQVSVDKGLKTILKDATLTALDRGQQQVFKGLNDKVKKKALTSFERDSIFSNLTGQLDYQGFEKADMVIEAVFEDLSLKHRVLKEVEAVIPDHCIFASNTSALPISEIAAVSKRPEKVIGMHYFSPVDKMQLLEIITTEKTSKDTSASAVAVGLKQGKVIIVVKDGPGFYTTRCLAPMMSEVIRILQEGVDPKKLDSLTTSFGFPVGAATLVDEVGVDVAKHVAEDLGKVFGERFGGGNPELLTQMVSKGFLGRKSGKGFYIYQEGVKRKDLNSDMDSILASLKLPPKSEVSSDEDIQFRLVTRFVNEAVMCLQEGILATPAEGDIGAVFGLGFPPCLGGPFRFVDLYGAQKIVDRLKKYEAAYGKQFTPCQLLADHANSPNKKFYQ

`CC(C)(c1ccccc1)c1cc(-n2nc3ccccc3n2)c(O)c(C(C)(C)c2ccccc2)c1` — result for “daily dermal exposure dose”: 1.34 ng/kg/day (human aged 16-21 years; concentration not given, sunscreen, 95th percentile).
With `O=c1ccc2ncc(=O)n3c2n1C[C@H]3CN1CCC(NCc2cc3c(cn2)OCCC3)CC1` the AUC(0-t) was 19600 ng·h/mL (healthy human volunteers, plasma; oral, 1500 mg, alone, arithmetic mean).
`Cn1c(-c2ccc(C(N)=O)cc2F)nnc1C(C)(C)Oc1c(F)cc(Cl)cc1F`: “gastrointestinal disorder TEAE” 0% (human; oral, 10 mg, single ascending dose).
For `O=C1Nc2cc3[nH]nc(-c4ccncc4)c3cc2CN1Cc1ccccc1`, “patients with blurred vision” read 0% (CTCAE v4.03; advanced solid tumour patients; intravenous, 0.45 mg/kg, schedules 1/2).
With `CN1CCN(S(=O)(=O)c2cc([N+](=O)[O-])ccc2N(CCOS(C)(=O)=O)CCOS(C)(=O)=O)CC1` the sodium was 158 mmol/L (naive NOD/SCID mice, pooled blood; intraperitoneal, 18.8 mg/kg, week 4).
`Clc1cc2c(cc1Cl)Oc1c(ccc(Cl)c1Cl)O2`: “final permeate concentration” 0.11 nM (ultrafiltration; cow milk whey; 20 nM nominal in whole milk).
`CCC[C@@](N)(CO)CCc1ccc(OCCCCCC(C)C)cc1` gave a Cmax of 596 nM (dog, male hounds, plasma; oral capsule, 20 mg/kg, geometric mean).
Under “patients with nausea”, `C=CC(=O)Nc1cc(Nc2nccc(Nc3cc(Cl)c(F)cc3C(C)(C)O)n2)c(OC)cc1N1CC[C@@H](N(C)C)C1` is recorded as 18.8% (human patients; oral, 200 mg, treatment-emergent adverse events).
`CCOc1ncc(C)c2c1[C@H](c1ccc(C#N)cc1OC)C(C(N)=O)=C(C)N2`: “central volume (Vc/F)” 113 L (population PK model; patients; oral, dose not given).
With `CO[C@H]1C[C@@H]2CC[C@@H](C)[C@@](O)(O2)C(=O)C(=O)N2CCCC[C@H]2C(=O)O[C@H]([C@H](C)C[C@@H]2CC[C@@H](OC(=O)NCCOCCOCCOCCOCCOCCOCCOCCOCCC(=O)N3CCc4cc(Cn5nc(-c6ccc7oc(N)nc7c6)c6c(N)ncnc65)ccc4C3)[C@H](OC)C2)C[C@@H](O)[C@H](C)/C=C(\C)[C@@H](O)[C@@H](OC)C(=O)[C@H](C)C[C@H](C)/C=C/C=C/C=C/1C` the TRAE incidence was 0% (phase 1 dose escalation, measured: headache; advanced solid tumour patients; intravenous, 6 mg weekly, grade ≥3).
`C=CC(=O)N1CC[C@H](n2nc(C#Cc3cc(OC)cc(OC)c3)c3c(N)ncnc32)C1` — result for “hyponatremia incidence, grade ≥3”: 4.5% (human patients; oral, dose not given, QD regimen, adverse drug reaction, added: sevelamer hydrochloride).
The relative abundance of `C[C@H]1CN(c2n[nH]c3nc(N[C@H]4CC[C@H](NS(=O)(=O)CCC(F)(F)F)CC4)ncc23)CCO1` is reported as 1.14 (HADHA (Homo sapiens, UniProt P40939); inhibitor, Kinobeads competition profiling; 0.8 µM; baseline: vehicle).
`O=C(Nc1ccccc1)C1CCN(C(=O)Oc2cccnc2)CC1`: “change in Time score” 0.2 (psychotropic effects VAS; healthy women; 100 mg; baseline: pre-dose baseline, direction not given).
For `CN1CC[C@@H](c2c(O)cc(O)c3c(=O)cc(-c4ccc(C(F)(F)F)cc4Cl)oc23)[C@@H]1CO`, “patients with adverse event” read 33.3% (measured: Dizziness; B-cell malignancies; oral, 150 mg, intermittent dosing).
`CC(C)(c1ccc(O)cc1)c1ccc(O)cc1` has an uptake of < 5% (zebrafish AB embryos and larvae; 24 h).
For `COc1ccccc1-c1cccc(CN2CCCC(C(=O)NCc3ccc(F)cc3)C2)c1` (stereo not drawn), the maximum response was -12% (Vero-E6; CellTiter-Glo ATP; 72 h, retest 8-point duplicates; baseline: DMSO 0%, hyamine -100%, more negative, more toxic).
Under “mean corpuscular haemoglobin”, `CC(C)[C@@H]1NC(=O)CNC(=O)[C@H](CC(N)=O)NC(=O)[C@H](CCCNC(=N)N)NC(=O)[C@H](Cc2ccc(O)cc2)NC(=O)[C@H](C(C)C)NC(=O)[C@@H](NC(=O)[C@@H](NC(=O)[C@H](CC(N)=O)NC(=O)[C@H](Cc2c[nH]c3ccccc23)NC(=O)[C@H](C)NC(=O)[C@H](Cc2ccccc2)NC(=O)CN)C(C)C)CSSC[C@@H](C(=O)N[C@@H](Cc2cnc[nH]2)C(=O)N[C@@H](CCCNC(=N)N)C(=O)N[C@@H](CCCNC(=N)N)C(=O)N[C@@H](C)C(=O)N[C@@H](CC(N)=O)C(N)=O)NC(=O)[C@H](C(C)C)NC(=O)[C@H](CCCNC(=N)N)NC1=O` is recorded as 13.5 ± 0.26 pg (ICR mice, blood; intraperitoneal, 10 mg/kg, day 5).
With `Cc1oc(-c2cccc(Cl)c2)nc1CN1CCCC(C(=O)NCCc2ccc(Cl)cc2)C1` (stereo not drawn) the maximum response was -18.6% (Vero-E6; CellTiter-Glo ATP; 72 h, first round 5-point; baseline: DMSO 0%, hyamine -100%, more negative, more toxic).
`Cc1cc(C)c(CNC(=O)c2cc(Cl)c3c(c2C)O[C@@](C)([C@H]2CC[C@H](N(C)C)CC2)O3)c(=O)[nH]1` gave a Hypophosphataemia incidence of 0% (human, relapsed/refractory NHL; concentration not given, treatment-related TEAEs, grade 5).
`CC(C)n1c(C2CCNCC2)nc2c([N+](=O)[O-])c(Br)c(Br)cc21`: “related grade ≥3 adverse events” 3% (measured: Anemia; AML patients; dose not given, all doses).
For `CC[C@H](C)[C@H](NC(=O)[C@H](CC(C)C)NC(=O)[C@H](Cc1c[nH]c2ccccc12)NC(=O)[C@H](CCC(N)=O)NC(=O)[C@@H](NC(=O)[C@H](Cc1ccccc1)NC(=O)[C@H](C)NC(=O)[C@H](CCCCNC(=O)COCCOCCNC(=O)COCCOCCNC(=O)CC[C@H](NC(=O)CCCCCCCCCCCCCCCCCCC(=O)O)C(=O)O)NC(=O)[C@H](CCC(N)=O)NC(=O)[C@H](C)NC(=O)[C@@H](NC(=O)[C@H](CCCCN)NC(=O)[C@H](CC(=O)O)NC(=O)[C@H](CC(C)C)NC(=O)C(C)(C)NC(=O)[C@@H](NC(=O)[C@H](CO)NC(=O)[C@H](Cc1ccc(O)cc1)NC(=O)[C@H](CC(=O)O)NC(=O)[C@H](CO)NC(=O)[C@@H](NC(=O)[C@H](Cc1ccccc1)NC(=O)[C@@H](NC(=O)CNC(=O)[C@H](CCC(=O)O)NC(=O)C(C)(C)NC(=O)[C@@H](N)Cc1ccc(O)cc1)[C@@H](C)O)[C@@H](C)O)[C@@H](C)CC)[C@@H](C)CC)C(C)C)C(=O)N[C@@H](C)C(=O)NCC(=O)NCC(=O)N1CCC[C@H]1C(=O)N[C@@H](CO)C(=O)N[C@@H](CO)C(=O)NCC(=O)N[C@@H](C)C(=O)N1CCC[C@H]1C(=O)N1CCC[C@H]1C(=O)N1CCC[C@H]1C(=O)N[C@@H](CO)C(N)=O`, the peak-to-trough ratio was 2.14 (human, plasma; subcutaneous, 5 mg group, week 8, geometric mean; baseline: peak over trough concentration).
`CCCCCCCCCCCCCCCC(=O)N[C@@H](CCC(=O)NCCCC[C@H](NC(=O)[C@H](CC(=O)O)NC(=O)[C@H](CO)NC(=O)[C@@H](NC(=O)[C@H](Cc1ccccc1)NC(=O)[C@@H](NC(=O)CNC(=O)[C@H](CCC(N)=O)NC(=O)[C@H](CO)NC(=O)[C@@H](N)Cc1c[nH]cn1)[C@@H](C)O)[C@@H](C)O)C(=O)N[C@@H](CO)C(=O)N[C@@H](CCC(=O)O)C(=O)N[C@@H](Cc1ccc(O)cc1)C(=O)N[C@@H](CC(C)C)C(=O)N[C@@H](CC(=O)O)C(=O)N[C@@H](CO)C(=O)N[C@@H](CCC(=O)O)C(=O)N[C@@H](CCCNC(=N)N)C(=O)N[C@@H](C)C(=O)N[C@@H](CCCNC(=N)N)C(=O)N[C@@H](CC(=O)O)C(=O)N[C@@H](Cc1ccccc1)C(=O)N[C@H](C(=O)N[C@@H](C)C(=O)N[C@@H](Cc1c[nH]c2ccccc12)C(=O)N[C@@H](CC(C)C)C(=O)N[C@@H](CCC(=O)O)C(=O)N[C@@H](C)C(=O)NCC(=O)NCC(=O)O)C(C)C)C(=O)O` — result for “injection site erythema”: 12.5% (human, CrCl ≥ 90 mL/min; sc, 100 µg single dose).
`CC(C)C[C@H](NC(=O)[C@H](CCCCN)NC(=O)OCC1c2ccccc2-c2ccccc21)C(=O)N[C@H](C(=O)N[C@@H](Cc1ccccc1)C(=O)N[C@@H](Cc1ccccc1)C(=O)N[C@@H](CCCCN)C(=O)NCC(=O)N[C@@H](Cc1ccccc1)C(=O)N[C@@H](C)C(=O)N[C@@H](Cc1c[nH]c2ccccc12)C(=O)N[C@@H](CC(N)=O)C(=O)N[C@H](C(=O)N[C@H]1CSSC[C@@H](C(=O)N[C@@H](Cc2c[nH]cn2)C(=O)N[C@@H](CCCNC(=N)N)C(=O)N[C@@H](CCCNC(=N)N)C(=O)N[C@@H](C)C(=O)N[C@@H](CC(N)=O)C(N)=O)NC(=O)[C@H](C(C)C)NC(=O)[C@H](CCCNC(=N)N)NC(=O)[C@H](C(C)C)NC(=O)CNC(=O)[C@H](CC(N)=O)NC(=O)[C@H](CCCNC(=N)N)NC(=O)[C@H](Cc2ccc(O)cc2)NC(=O)[C@H](C(C)C)NC1=O)C(C)C)C(C)C` gave an albumin of 33.1 ± 1.24 g/L (ICR mice, serum; intraperitoneal, 5 mg/kg, day 5).
`COc1cc2c(Oc3ccc4[nH]c(C)cc4c3F)ccnc2cc1OCC1(N)CC1` has a Hyperuricaemia incidence of 0% (paediatric refractory sarcoma patients; 8 mg).
`C[C@]1(CO)Cc2ncn(-c3ccc(C#N)c(Cl)c3)c2C(=O)O1`: “subjects with drug-related fatigue” 0% (human; 40 mg multiple doses, fasted).
`CC1(C)C(/C=C(\Cl)C(F)(F)F)C1C(=O)OC(C#N)c1cccc(Oc2ccccc2)c1` (stereo not drawn): “enzyme contribution to clearance” 0.48% (measured: CYP2C9; human, age 1 year).
`C[C@@H](NC(=O)N1C(=O)[C@H](Cc2ccnc(N)c2)[C@H]1C(=O)O)C1CCCCC1` — result for “incidence of drug-related AEs”: 12.5% (healthy adult Chinese volunteers; continuous intravenous infusion, 0.6 mg/kg/h, 5-day infusion, CTCAE 5.0 grading).
For `C=CCNc1c(O)cc2c(O)c1C[C@@H](C)C[C@H](OC)[C@H](O)[C@@H](C)/C=C(\C)[C@H](OC(N)=O)[C@@H](OC)/C=C\C=C(/C)C(=O)N2`, “patients with nausea TEAE” read 67% (unresectable or metastatic STS, GIST, other; intravenous, 150 mg/m^2).
The bench-top stability of `CC(C)C(=O)OC[C@H]1O[C@@H](n2ccc(NO)nc2=O)[C@H](O)[C@@H]1O` is reported as 101 ± 1.22% (rat fetus dialysate; 250 ng/mL, 6 h, room temperature, high concentration, added: NHC 1000 ng/mL).
`CC(=O)c1c(C)c2cnc(Nc3ccc(C4CCN(CCS(C)(=O)=O)CC4)cn3)nc2n(C2CCCC2)c1=O` gave a Tmax of 1.67 h (human, plasma; oral, 75 mg, day 1 single dose).

Excerpt of the above:
With `CN1CCN(S(=O)(=O)c2cc([N+](=O)[O-])ccc2N(CCOS(C)(=O)=O)CCOS(C)(=O)=O)CC1` the sodium was 158 mmol/L (naive NOD/SCID mice, pooled blood; intraperitoneal, 18.8 mg/kg, week 4).
`Cc1cc(C)c(CNC(=O)c2cc(Cl)c3c(c2C)O[C@@](C)([C@H]2CC[C@H](N(C)C)CC2)O3)c(=O)[nH]1` gave a Hypophosphataemia incidence of 0% (human, relapsed/refractory NHL; concentration not given, treatment-related TEAEs, grade 5).
`CCOc1ncc(C)c2c1[C@H](c1ccc(C#N)cc1OC)C(C(N)=O)=C(C)N2`: “central volume (Vc/F)” 113 L (population PK model; patients; oral, dose not given).
